# Assay results pooled from the literature.
# Each line is one published result; not all experiments were run side by side. “And” joins repeats or separate records; there may be more than shown.
Compound,test system,setting,scale,endpoint,value
Nc1ccn([C@@H]2O[C@H](CO)[C@@H](O)C2(F)F)c(=O)n1,"mouse, MIA PaCa-2 experimental metastasis","intraperitoneal, 80 mg/kg",,median survival,62.1 days
COc1ccc([C@@H](O)c2cc(-c3ncnc4cc(N5CCOCC5)ccc34)c(F)cc2Cl)nn1,"mouse, orthotopic M12-eGFP tumour","125 mg/kg, together with: radiotherapy",baseline: radiotherapy alone,median survival extension,105% and 104%
CC(C)[C@@H](CS(=O)(=O)C(C)C)N1C(=O)[C@@](C)(CC(=O)O)C[C@H](c2cccc(Cl)c2)[C@H]1c1ccc(Cl)cc1,"mouse, orthotopic PDX","100 mg/kg, extended dosing until moribund",,median survival,51 days
COc1ccc(-c2ccc3ncc4c(c3c2)n([C@@H]2CCN(C)CC2(F)F)c(=O)n4C)cn1,"mouse, sample A orthotopic PDX","7.5 mg/kg x 10, no radiation",,median survival,23 days
Cc1nc(Nc2ncc(C(=O)Nc3c(C)cccc3Cl)s2)cc(N2CCN(CCO)CC2)n1,"mouse, MIA PaCa-2 experimental metastasis","oral, 40 mg/kg",,median survival,73.6 days
CCCCCN1C[C@H](O)[C@@H](O)[C@H](O)[C@@H]1CO,"Hexb-/- mouse, mixed sex",30 mg/kg/day,,median survival time,150 days
Cc1c(C(=O)O)ccc2c3n(nc12)[C@@H]1[C@H](C3)N(CC2CC2)[C@@]2(C(=O)Nc3cc(Cl)ccc32)[C@H]1c1cccc(Cl)c1F,"mouse, orthotopic MDM2-amplified PDX","2 mg/kg weekly, 2 doses",,median survival,66 days
Cc1cc(-c2nc(C(=O)Nc3cc4oc(N5CCOCC5)nc4nc3N3CC[C@@H](O)C3)co2)ccn1,"OCI-Ly3 PCNSL xenograft, mouse, intracranial tumour","oral, 100 mg/kg, two weeks",baseline: vehicle,median survival increase,68%

# Some of these lines once more:
Compound,test system,setting,scale,endpoint,value
CCCCCN1C[C@H](O)[C@@H](O)[C@H](O)[C@@H]1CO,"Hexb-/- mouse, mixed sex",30 mg/kg/day,,median survival time,150 days
